Measurements from different studies.
Numbered parts are unrelated; each lists some results of a single study. Positions count from the first letter of the parent shown.

Block 1
Target: CCNA2, cyclin fold, Cln2 fusion (human)
Technique: yeast growth competition, sequencing
Sample: yeast
Notes: strong parent motif
Reference: not given
Direction: higher = stronger binding
Parent: PKN2 docking peptide (human); VSAVRKLDFSDTM
| Substitution | normalised enrichment score |
| --- | --- |
| D11G | 5.33 |
| V4Y | 5.6 |
| L7W | -0.163 |
| S2F | 4.35 |
| S10M | 4.72 |
| A3D | -0.0795 |
| T12N | 5.57 |
| R5S | 0.78 |
| F9R | 0.811 |
| T12L | 5.48 |
| L7E | -0.169 |
| A3R | 3.01 |
| D11V | 5.24 |
| V4P | 3.53 |
| S10A | 5.32 |
| V4T | 3.96 |
| T12K | 5.86 |

Block 2
Target: Ras GTPase-activating protein-binding protein 1, C-terminal RGG region (G3BP1, Homo sapiens, UniProt Q13283)
Chain of UniProt Q13283 (whole entry, looked up): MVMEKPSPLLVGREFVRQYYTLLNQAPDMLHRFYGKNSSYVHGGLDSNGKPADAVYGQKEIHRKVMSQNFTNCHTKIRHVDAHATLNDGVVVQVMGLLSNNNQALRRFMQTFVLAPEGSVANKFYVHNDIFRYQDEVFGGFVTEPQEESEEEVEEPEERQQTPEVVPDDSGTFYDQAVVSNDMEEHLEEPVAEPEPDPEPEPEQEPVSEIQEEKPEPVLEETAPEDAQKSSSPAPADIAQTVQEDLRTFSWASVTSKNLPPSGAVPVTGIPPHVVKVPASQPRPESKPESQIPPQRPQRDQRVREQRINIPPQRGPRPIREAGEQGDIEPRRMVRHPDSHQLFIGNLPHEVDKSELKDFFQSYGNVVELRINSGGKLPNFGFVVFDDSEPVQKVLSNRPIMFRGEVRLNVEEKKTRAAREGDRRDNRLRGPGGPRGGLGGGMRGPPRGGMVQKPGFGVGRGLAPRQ
Technique: RNA Bind-n-Seq
Form: RNA
Sample: in vitro
Tested at: 1 µM
Notes: whole 134-nt RNA, ends assumed
Added: 150 mM KCl
Reference: input library
Direction: higher = stronger binding
Shared flanks, not repeated: GGGAGUUCUACAGUCCGACGAUC … UGGAAUUCUCGGGUGUCAAGG
| Oligonucleotide | log2 enrichment |
| --- | --- |
| AGUCCUGUGCUACACAUCGUAUGUACCGAAUCAAAUUUUUAAACCCAAAUUUUUAAAAAAGUAUUAUGUUACGCCGUUCGGAUCUGCACU | -1.23 |
| UCCUGUGCUACACAUCGUAUGUACCGAAUCGGGUUUUUUGGGGUUUUUUGGUUUUUUGGAAAGUAUUAUGUUACGCCGUUCGGAUCUGCA | -0.363 |
| GUCCUGUGCUACACAUCGUAUGUACCGAAUCGGUUUUUUUGGAAAAAGGUUUUUUUGGAAAGUAUUAUGUUACGCCGUUCGGAUCUGCAC | -1.74 |
| CCUCAAGUCCUGUGCUACACAUCGUAUGUACCGAAUCGGAGGAAAAAGGUGGAAAGUAUUAUGUUACGCCGUUCGGAUCUGCACUUCCAG | -0.689 |
| GUCCUGUGCUACACAUCGUAUGUACCGAAUCGGUUUUUGGGUUUUUGGGGUUUUUGGGGAAAGUAUUAUGUUACGCCGUUCGGAUCUGCA | -0.754 |
| UGGCCCUGGUGGCAUGCAGGGAGGAAGAGGUGGCCUCAUGGAUCGUGGUGGUCCCGGUGGAAUGUUCAGAGGUGGCCGUGGUGGAGACAG | 2.41 |
| CUGUGCUACACAUCGUAUGUACCGAAUCGGAAAAAAAGGGGAAAAAAAGGAAAAAAAGGGGAAAGUAUUAUGUUACGCCGUUCGGAUCUG | -1.4 |
| ACCAUGCAGGUGGGCAUCUUUGGGAAGUGGGGCAAGGGGGGGAUAGGGAGGGGGGAAACACUUUGGGAACAGGUGGUCCCAGGUCGUUUC | -1.37 |
| UGGCCCUGGUGGCAUGCGGGGAGGAAGAGGUGGCCUCAUGGAUCGUGGUGGUCCCGGUGGAAUGUUCAGAGGUGGCCUUGGUGGAGACAG | 3.42 |
| CCUCAAGUCCUGUGCUACACAUCGUAUGUACCGAAUCGGGCCGGGCCGGCCGGAAAGUAUUAUGUUACGCCGUUCGGAUCUGCACUUCCA | -0.832 |
| ACCAUGCAGGUGGGCAUCUUUGGGAAGUGGGGCAACGGGGGGAUAGGGAGGGGGGUAACACUUUGGGAACAGGUGGUCCCAGGUCGUUUC | -1.14 |
| UCCUGUGCUACACAUCGUAUGUACCGAAUCAAAUUUUUUUAAAUUUUUUUAAAUUUAAAAAAGUAUUAUGUUACGCCGUUCGGAUCUGCA | -1.89 |
| UCCUCAAGUCCUGUGCUACACAUCGUAUGUACCGAAUCGGGAGGGAGGGAGGAAAGUAUUAUGUUACGCCGUUCGGAUCUGCACUUCCAG | 2.56 |
| CCUCAAGUCCUGUGCUACACAUCGUAUGUACCGAAUCGGGGAGGGAGGGAGGGAAAGUAUUAUGUUACGCCGUUCGGAUCUGCACUUCCA | 2.84 |

Block 3
Target: CEBPA, bZIP domain (human)
Technique: DHFR protein complementation
Sample: yeast
Notes: single substitutions, most at no-binding floor
Reference: wild-type JUN-FOS pair
Direction: higher = stronger binding
Parent: JUN, bZIP domain (human); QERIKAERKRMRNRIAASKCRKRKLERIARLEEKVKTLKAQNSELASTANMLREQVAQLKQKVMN; partner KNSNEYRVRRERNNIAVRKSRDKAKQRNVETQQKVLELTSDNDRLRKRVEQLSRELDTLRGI
| Substitution | binding fitness |
| --- | --- |
| M51T | -1.33 natural log |
| S43V | -1.45 natural log |
| E54G | -1.48 natural log |
| A29G | -1.45 natural log |
| E32T | -1.45 natural log |
| A46Q | -1.42 natural log |
| T37Y | -1.46 natural log |
| S47A | -1.35 natural log |
| A57S | -1.32 natural log |
| N42Q | -1.47 natural log |
| A40R | -1.42 natural log |
| E54Q | -0.977 natural log |
| I28G | -1.43 natural log |
| A57V | -1.51 natural log |
| N42H | -1.49 natural log |
| A49M | -1.44 natural log |
| K39L | -1.42 natural log |
| A46P | -1.49 natural log |
| S43I | -1.43 natural log |
| E33N | -1.43 natural log |
| Q41N | -1.53 natural log |
| N42Y | -1.5 natural log |
| Q55C | -1.1 natural log |
| R30W | -1.47 natural log |
| R30P | -1.45 natural log |

Block 4
Target: UBE2C UBC core domain (UniProt O00762)
Chain of UniProt O00762 (whole entry, looked up): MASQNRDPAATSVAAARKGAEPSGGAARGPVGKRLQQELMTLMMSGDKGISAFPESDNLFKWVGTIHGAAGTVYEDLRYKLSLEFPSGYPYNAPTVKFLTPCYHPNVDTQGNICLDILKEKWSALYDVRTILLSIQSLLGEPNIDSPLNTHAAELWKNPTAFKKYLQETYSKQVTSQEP
Technique: yeast two-hybrid
Sample: yeast
Notes: mostly zero background
Reference: not given
Direction: higher = stronger interaction
B1: SHPRH RING domain (UniProt Q149N8); chain KTSGGVNPEPCPICARQLGKQWAVLTCGHCFCNECISIIIEQYSVGSHRSSIKCAICRQTTSHKEISY
B2: RNF115 RING domain (UniProt Q9Y4L5); chain TQEQVDMGLECPVCKEDYTVEEEVRQLPCNHFFHSSCIVPWLELHDTCPVCRKSLNGEDSTR
B3: TRIM47 RING domain (UniProt Q96LD4); chain MDGSGPFSCPICLEPLREPVTLPCGHNFCLACLGALWPHRGASGAGGPGGAARCPLCQEPFPDGLQLR
B4: PJA2 RING domain (UniProt O43164); chain DHTAIGQEQCCPICCSEYIKDDIATELPCHHFFHKPCVSIWLQKSGTCPVCRRHFPPAVIEA
B5: RNF10 RING domain (UniProt Q8N5U6); chain VRICSHEVPSCPICLYPPTAAKITRCGHIFCWACILHYLSLSEKTWSKCPICYSSVHKKDLKS
B6: RNF11 RING domain (UniProt Q9Y3C5); chain RDGSEKKIRECVICMMDFVYGDPIRFLPCMHIYHLDCIDDWLMRSFTCPSCMEPVDAALLSS
B7: TRIM32 RING domain (UniProt Q13049); chain NLDALREVLECPICMESFTEEQLRPKLLHCGHTICRQCLEKLLASSINGVRCPFCSKITRITSLTQ
B8: TRIM74 RING domain (UniProt Q86UV6); chain SLLELEDWLQCPICLEVFKESLMLQCGHSYCKGCLVSLSYHLDTKVRCPMCWQVVDGSSSLP
B9: MARCHF2 RING domain (UniProt Q9P0N8); chain RLLSTVIRALDTPSDGPFCRICHEGANGECLLSPCGCTGTLGAVHKSCLEKWLSSSNTSYCELCHTEFAVEKRPRPLTEWL
| Sequence | lacZ reporter activity |
| --- | --- |
| SNNDLASLFECPVCFDYVLPPILQCQSGHLVCSNCRPKLTCCPTCRGPLGSIRNLA (SIAH1 RING domain (UniProt Q8IUQ4)) | 0 |
| B1 (SHPRH RING domain) | 0 |
| B2 (RNF115 RING domain) | 0 |
| B3 (TRIM47 RING domain) | 0 |
| KITELNPHLMCALCGGYFIDATTIVECLHSFCKTCIVRYLETNKYCPMCDVQVHKTRPLL (PCGF2 RING domain (UniProt P35227)) | 0 |
| B4 (PJA2 RING domain) | 0 |
| MEEMEEELKCPVCGSFYREPIILPCSHNLCQACARNILVQTPESESPQSHRAAGSGVSDY (TRIM9 RING domain (UniProt Q9C026)) | 0 |
| B5 (RNF10 RING domain) | 0 |
| B6 (RNF11 RING domain) | 0 |
| B7 (TRIM32 RING domain) | 0 |
| EDVLSKDAGECAICLEELQQGDTIARLPCLCIYHKGCIDEWFEVNRSCPEHPSD (ZNRF2 RING domain (UniProt Q8NHG8)) | 0 |
| B8 (TRIM74 RING domain) | 0 |
| B9 (MARCHF2 RING domain) | 0 |
| PLRRLQEEKLCKICMDRHIAVVFIPCGHLVTCKQCAEAVDRCPMCSAVIDFKQRVF (BIRC8 RING domain (UniProt Q96P09)) | 0 |
| GSEEEEIPFRCFICRQAFQNPVVTKCRHYFCESCALEHFRATPRCYICDQPTGGIFNPA (RNF113B RING domain (UniProt Q8IZP6)) | 0 |

Block 5
Target: ABI1, truncated, D143A, DHFR fusion (Arabidopsis thaliana)
Technique: DHFR PCA, deep sequencing
Sample: yeast
Notes: methotrexate growth selection, single substitutions
Added: (+)-ABA 4.8 µM
Reference: wild-type fitted maximum
Direction: higher = stronger binding
Parent: PYL1, truncated, DHFR fusion (Arabidopsis thaliana); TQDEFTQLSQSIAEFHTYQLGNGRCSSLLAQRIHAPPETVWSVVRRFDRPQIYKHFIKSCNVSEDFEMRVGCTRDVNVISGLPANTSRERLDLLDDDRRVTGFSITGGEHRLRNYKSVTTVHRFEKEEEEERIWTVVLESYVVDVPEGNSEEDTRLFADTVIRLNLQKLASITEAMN
| Substitution | relative binding score [%] |
| --- | --- |
| V100Y | -16.1 |
| W41P | -4.25 |
| E128C | 76.6 |
| Q19I | 61.2 |
| R49T | 64.2 |
| E109Y | 18 |
| G107Y | 4.06 |
| T17G | 19.7 |
| N114H | 39.4 |
| S80T | 60.9 |
| F157H | -10.8 |
| S87A | 33.1 |
| Y115A | -2.52 |
| I12G | -2.59 |
| R45K | 37.9 |
| I57P | 12.8 |
| Q51E | 65.8 |
| V118G | -2.11 |

A few entries again (block 5):
| Substitution | relative binding score [%] |
| --- | --- |
| R49T | 64.2 |
| E109Y | 18 |
| G107Y | 4.06 |
| T17G | 19.7 |
| N114H | 39.4 |
| S80T | 60.9 |
| F157H | -10.8 |
